Measured values collected from several papers.
± marks the error that the study gave.

CN(C)c1cccc(Oc2cnc(Nc3ccccc3)nc2)c1 — kallikrein activity (factor XII contact system, human; inhibitor, chromogenic substrate S-2302; 40 µM, with: amyloid-beta 42 oligomers 1 µM): decreased
COc1cc(C(=O)N2CCC(N3CCN(C)CC3)CC2)ccc1Nc1ncc2c(n1)N(C1CCCC1)c1ccccc1C(=O)N2C — EC50 (ERK5, human; autophosphorylation; HeLa; with: EGF): 80 ± 20 nM
COc1ccc2c(c1)S(=O)(=O)N(CCCCCc1ccccc1)C(=O)O2 — inhibition (LYPLA1/2, human; enzyme activity, inhibitor, ABPP-SILAC; HEK cell lysate; 25 µM): no inhibition
CCOc1cc(C(=O)N2CCC(N3CCN(C)CC3)CC2)ccc1Nc1ncc2c(n1)N(C(C)C)c1ccccc1C(=O)N2C — EC50 (ERK5, human; autophosphorylation; HeLa; with: EGF): 25 ± 7 nM
C#CCCCN1C(=O)C2(CN2[S+]([O-])C(C)(C)C)c2ccccc21 (centres unmarked) — EC50 (MYC; reporter gene, inhibitor, luciferase reporter; HEK-293T; 24 h): > 50000 nM
COC(=O)[C@@H]1C(c2nc3ccccc3s2)=Cc2cc3c(cc2[C@H]1c1cc(OC)c(OC)c(OC)c1)OCO3 — selectivity index (Leishmania; mouse splenocytes; baseline: CC50 over amastigote EC50): 0.2
C=CC(=O)N1CCC(c2cc(Nc3cc4n(n3)CCOC4)c3ncnn3c2)C1 (single isomer, unassigned) — IC50 (PLCgamma2 activation; IP1 production, HTRF; Ramos, BTK knock-out; 4 h preincubation, with: anti-IgM; baseline: Ramos wild type): > 1000 nM
COC(=O)[C@@]1(C)C=C(C(=O)Nc2cccc(C(=O)NC34CC(Nc5nccc(-c6cccnc6)n5)(C3)C4)c2)C(=O)CC1 — remaining activity (MAPK9 (Homo sapiens, UniProt P45984); enzyme activity, inhibitor; 0.06097 µM): 0.456 fraction of control
Nc1ccc(Cl)c2cccnc12 — Met-14-3-3γ level (methionine aminopeptidase; immunoblot; HUVEC; up to 10 µM): no effect
CCOC(=O)C1=CC(C(=O)OCC)(c2ccc(Br)cc2)CCC1=O (centres unmarked) — selectivity ratio (p38α MAPK human; baseline: Ki ERK2 over Ki p38α): ~40 fold
COc1cccc(Cc2cc(C)nn(C(C(=O)Nc3ccc(Br)cc3)C(C)C)c2=O)c1 (racemic) — EC50 (human formyl peptide receptors; calcium mobilization, agonist; human neutrophils): 3000 nM
NC(=O)[C@@H]1CCNC(=O)[C@H](CCCNC(=O)c2cnccn2)NC(=O)[C@H](Cc2ccco2)NC(=O)[C@H](CC2CC2)NC(=O)/C=C\C(=O)N1 — selectivity ratio (Src-family kinases human; excluding Fgr; baseline: Src over Src-family kinases): > 10 fold
O=C(NCc1nnc2n1CCN(Cc1cc3ccccc3[nH]1)CC2)C1CCOC1 (centres unmarked) — EC50 (4-1BB human; reporter gene, cell-based reporter): 1280 nM
COc1cc([C@@H]2c3cc4c(cc3C=C(C=O)[C@H]2C(=O)OCCCCCCBr)OCO4)cc(OC)c1OC — selectivity index (Leishmania; mouse splenocytes; baseline: CC50 over amastigote EC50): 2.6
C/C=C/Cn1c(Cc2cc(OC)c(OC)c(OC)c2)nc2c(N)ncnc21 — Ki (Hsp90α; binding, fluorescence polarization competition; with: Cy3B-geldanamycin tracer): 1500 ± 20 nM
CCCCC(C(=O)Nc1ccc(Br)cc1)n1nc(C)cc(Cc2cccc(OC)c2)c1=O (racemic) — EC50 (human formyl peptide receptors; calcium mobilization, agonist; human neutrophils): 60 nM
CCN1c2ccccc2C(=O)N(C)c2cnc(Nc3ccc(C(=O)N4CCC(N5CCN(C)CC5)CC4)cc3OC)nc21 — EC50 (ERK5, human; autophosphorylation; HeLa; with: EGF): 22 ± 4 nM
O=C(NNC(=S)Nc1cccc(C(F)(F)F)c1)c1cccn1-c1ccc(F)cc1 — IC50 (androgen receptor; reporter gene, antagonist; MDA-kb2; 20 h, with: DHT 0.2 nM): 700 nM
CCCC(C(=O)Nc1ccc(Br)cc1)n1nc(C)cc(Cc2cccc(OC)c2)c1=O (racemic) — EC50 (human formyl peptide receptors; calcium mobilization, agonist; human neutrophils): 300 nM
NCc1cccc(C2CCN(C(=O)c3cccc(NC(=O)C(O)C4(O)CCC4)c3)CC2)c1 (racemic) — IC50 (tryptase, human; enzyme activity, inhibitor; HMC-1, lysate of treated cells): 21800 nM

Some of these lines once more:
COC(=O)[C@@]1(C)C=C(C(=O)Nc2cccc(C(=O)NC34CC(Nc5nccc(-c6cccnc6)n5)(C3)C4)c2)C(=O)CC1 — remaining activity (MAPK9 (Homo sapiens, UniProt P45984); enzyme activity, inhibitor; 0.06097 µM): 0.456 fraction of control
NC(=O)[C@@H]1CCNC(=O)[C@H](CCCNC(=O)c2cnccn2)NC(=O)[C@H](Cc2ccco2)NC(=O)[C@H](CC2CC2)NC(=O)/C=C\C(=O)N1 — selectivity ratio (Src-family kinases human; excluding Fgr; baseline: Src over Src-family kinases): > 10 fold
CCCC(C(=O)Nc1ccc(Br)cc1)n1nc(C)cc(Cc2cccc(OC)c2)c1=O (racemic) — EC50 (human formyl peptide receptors; calcium mobilization, agonist; human neutrophils): 300 nM
